Measured values from different studies.
A part holds a random share of what one study measured.

Series 1
Substance: PhoQ, residues 284 288 289 292 302 303 NLCILV
Technique: Sort-seq
Item: YFP reporter
Sample: E. coli
Setting: PhoQ-PhoP variant library
With: 10 µM Mg2+
Reference: high Mg2+ state
Reading: higher = stronger signaling
PhoP, residues 12 14 15 18 19 ICWRQ (Escherichia coli, UniProt P23836) — fold induction: 2.59.
It gave 15.2 for fold induction (PhoP, residues 12 14 15 18 19 VHTVL (Escherichia coli, UniProt P23836)).
PhoP, residues 12 14 15 18 19 TQCLL (Escherichia coli, UniProt P23836) — fold induction: 3.78.

Series 2
Target: Sal-like protein 4, full length isoform B (SALL4, Homo sapiens, UniProt Q9UJQ4-2, residues 1-616)
Technique: universal PBM
Form: double-stranded DNA, one strand shown
Sample: in vitro
Concentration: not given
Setting: 8-mer, flanks averaged, mean of replicates
Reading: higher = stronger binding
The E-score of `CGGGGGAG` is reported as -0.202.
`TGGTAACA` has an E-score of 0.0749.
With `TAACGGGA` the E-score was 0.0898.
`CTTGACAC` has an E-score of -0.132.
For `CCTATTGA`, the E-score was 0.236.
The E-score of `CTTCGAAA` is reported as 0.0775.
With `GATGTGCA` the E-score was 0.00908.
The E-score of `CGTCACCC` is reported as -0.147.
For `ACTCCAGA`, the E-score was -0.0197.
For `GACCAAGC`, the E-score was -0.0856.
The E-score of `AAACAATT` is reported as 0.265.

Series 3
Target: Prothrombin, mature alpha-thrombin (F2, Homo sapiens, UniProt P00734)
Technique: aptamer microarray, sandwich
Form: DNA with 2'F-ANA
Sample: in vitro
Concentration: 200 nM
Setting: whole 15-mer aptamer, many near background
With: Cy3 exosite-II aptamer, 400 nM
Reading: higher = stronger binding
Strand: GGTTGGTGTGGTTGG
For `2'F-ANA at 2 3 6 7 11 12 13 15`, “mean fluorescence intensity” read 812 a.u.
Under “mean fluorescence intensity”, `2'F-ANA at 2 3 4 7 9 12 13 14` is recorded as 265 a.u.
Under “mean fluorescence intensity”, `2'F-ANA at 6 8 9 10 11 12 13 14` is recorded as 103 a.u.
`2'F-ANA at 1 2 5 10 12 14 15` — result for “mean fluorescence intensity”: 47.5 a.u.
`2'F-ANA at 2 4 7 9 15`: “mean fluorescence intensity” 365 a.u.
For `2'F-ANA at 1 5 7 9 10 15`, “mean fluorescence intensity” read 40.9 a.u.
`2'F-ANA at 1 7 8 9 11 13`: “mean fluorescence intensity” 163 a.u.
Under “mean fluorescence intensity”, `2'F-ANA at 1 2 3 4 5 8 9 10 11 12 14` is recorded as 49.7 a.u.
For `2'F-ANA at 3 5 8 9 12 13 14`, “mean fluorescence intensity” read 151 a.u.
Under “mean fluorescence intensity”, `2'F-ANA at 1 2 5 6 8 9 11 13 15` is recorded as 63.9 a.u.
Under “mean fluorescence intensity”, `2'F-ANA at 1 2 4 5 7 10 13 14 15` is recorded as 46.5 a.u.
`2'F-ANA at 1 2 4 5 6 8 10 11 12 13 14` — result for “mean fluorescence intensity”: 48.9 a.u.
Under “mean fluorescence intensity”, `2'F-ANA at 1 2 4 6 7 9 10 14` is recorded as 48.1 a.u.

Series 4
Target: Histone acetyltransferase KAT6A, both winged helices, GST fusion (KAT6A, Homo sapiens, UniProt Q92794, residues 1-181)
Technique: protein binding microarray
Form: double-stranded DNA, one strand shown
Sample: in vitro
Concentration: not given
Setting: 8-mer, flanks averaged, mean of 2 arrays, mostly near background
Reference: not given
Reading: higher = stronger binding
Construct (chain): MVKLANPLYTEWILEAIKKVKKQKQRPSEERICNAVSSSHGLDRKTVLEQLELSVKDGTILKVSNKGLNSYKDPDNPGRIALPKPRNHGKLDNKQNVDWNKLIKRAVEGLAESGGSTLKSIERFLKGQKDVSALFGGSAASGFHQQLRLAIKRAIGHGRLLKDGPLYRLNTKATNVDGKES
`TGAAACAA` has an E-score of -0.108.
For `AACCAAGA`, the E-score was -0.195.
With `GGGAGGCA` the E-score was 0.00802.
For `CGCGGGAG`, the E-score was 0.29.
`CGCGCTTC` has an E-score of 0.338.
For `GACGGCCA`, the E-score was 0.176.
The E-score of `CCCGTGTA` is reported as 0.143.
The E-score of `ATTATTTC` is reported as -0.0226.
The E-score of `TCTTACAA` is reported as -0.121.
With `ACAATGTG` the E-score was -0.155.
The E-score of `GCTCAAAA` is reported as 0.0486.
For `CACCTACC`, the E-score was -0.121.
With `AACTTTCT` the E-score was -0.0966.
`CAATCATA` has an E-score of -0.0429.
